Experimental data of several laboratories.
Compare with care: the assays were run in different laboratories. Values joined by “and” are separate records of one study, mostly repeats; a detail may differ.
Target: Serine/threonine-protein kinase tousled-like 2 (TLK2, Homo sapiens, UniProt Q86UE8)
Chain of UniProt Q86UE8 (whole entry, looked up): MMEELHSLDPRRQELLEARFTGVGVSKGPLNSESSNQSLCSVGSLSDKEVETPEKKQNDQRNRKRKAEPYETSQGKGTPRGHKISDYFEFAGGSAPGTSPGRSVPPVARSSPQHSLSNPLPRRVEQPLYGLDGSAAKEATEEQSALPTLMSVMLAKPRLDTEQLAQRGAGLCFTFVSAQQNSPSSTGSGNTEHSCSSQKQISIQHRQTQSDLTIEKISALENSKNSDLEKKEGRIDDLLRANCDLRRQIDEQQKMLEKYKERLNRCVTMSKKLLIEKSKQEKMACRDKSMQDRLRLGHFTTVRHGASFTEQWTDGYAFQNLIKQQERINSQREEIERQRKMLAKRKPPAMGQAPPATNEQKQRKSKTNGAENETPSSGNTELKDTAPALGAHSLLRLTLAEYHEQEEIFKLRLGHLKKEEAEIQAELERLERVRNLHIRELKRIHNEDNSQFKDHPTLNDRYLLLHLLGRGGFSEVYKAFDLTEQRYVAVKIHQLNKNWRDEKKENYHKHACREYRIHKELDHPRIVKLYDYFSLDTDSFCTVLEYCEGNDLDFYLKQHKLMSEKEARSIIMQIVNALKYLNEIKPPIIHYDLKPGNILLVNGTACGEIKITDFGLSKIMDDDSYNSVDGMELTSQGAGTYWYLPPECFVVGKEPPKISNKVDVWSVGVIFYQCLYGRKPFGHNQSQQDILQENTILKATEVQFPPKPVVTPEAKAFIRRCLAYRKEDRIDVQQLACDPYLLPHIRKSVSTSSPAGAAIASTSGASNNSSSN

SMILES | assay | system | conditions | how to read | endpoint | value
COc1cc(Nc2nc(C)cc(-c3cnn4nc(OC)ccc34)n2)cc(C(F)(F)F)c1 | binding, competition with immobilised ligand |  | 1 µM |  | remaining binding | 98%
Cc1cnc2nc1Nc1cccc(c1)COC/C=C/COCc1cc(ccc1OCCN1CCOCC1)N2 | binding, competition with immobilised ligand |  | 0.1 µM |  | remaining binding | 93%
CN1CCN(Cc2ccc(-c3ccc(CO[C@H]4CCC[C@@H]4NC(=O)c4cc(-c5cnn(C)c5)cnc4N)cc3)cc2)CC1 | enzyme activity, inhibitor |  | 0.1 µM |  | inhibition | 5%
Cc1ccc(C(=O)Nc2ccc(CN3CCN(C)CC3)c(C(F)(F)F)c2)cc1C#Cc1cnc2cccnn12 | target engagement, NanoBRET | human cells |  |  | upper asymptote | 193
C=CC(=O)N1CCCC(n2c(=O)c3ncccc3n(Cc3ccc(Oc4ccccc4)cc3)c2=O)C1 (centres unmarked) | cell-free assay, competition with immobilised ligand |  | 1 µM |  | remaining binding | 100%
CN1CC[C@@H](COc2cnc(C#N)cc2-c2ccn3nc(NC(=O)C4CC4)cc3c2)C1 | enzyme activity, inhibitor |  | 1 µM |  | inhibition | -8%
CC(C)=CC1OC(C)(C)C2C=C3C(=O)C(Cl)=CC(O)C3C3C(O)C4OC4C(=O)C132 (centres unmarked) | cell-free assay, competition with immobilised ligand |  | 10 µM |  | remaining binding | 94%
C=CC(=O)N1CCc2ccc(-n3c(=O)ccc4cnc5ccc(-c6cnn(C)c6)cc5c43)cc21 | KINOMEscan |  | 1 µM | reference: DMSO control | remaining binding | 100%
CS(=O)(=O)Nc1cccc(-c2csc3cnc(Nc4ccc(N5CCN(CCCCCOc6cccc7c6C(=O)N(C6CCC(=O)NC6=O)C7=O)CC5)cc4)nc23)c1 (centres unmarked) | probe labelling, inhibitor, KiNativ chemoproteomics | MOLT-4 | 1 µM |  | inhibition | 25.5%
N[C@H]1CC[C@H](Nc2nccc(-c3cccnc3Oc3ccc(NC(=O)NC4CC4)c4ccccc34)n2)CC1 | kinobead competition pulldown | HEK293/HCT116 lysate mixture | 10 µM, 1 h, 4 °C | lower = stronger competition | log2 LFQ intensity | 22.7 and 22.8 and 22.9 and 22.6
Nc1ncc(-c2cc(-c3cnn(CC(F)(F)F)c3)ncc2F)nc1C(=O)NC1CNCC(F)C1 (centres unmarked) | enzyme activity |  | 1 µM | reference: DMSO control | remaining activity | 83.6%
CNC1C[S+]2CC[S+]3CC[S+](C1)[Ru-4]321([N]=C=S)[n]2c3ccc(OC)cc3c3c4c(c5cc(F)c[n+]1c5c32)C(=O)NC4=O (centres unmarked) | KinomeScan |  | 0.1 µM | reference: untreated | remaining binding | 95%
NC(=O)C[C@H]1CCc2sc3ncnc(O[C@H]4CC[C@H](N5CCOCC5)CC4)c3c21 | enzyme activity, inhibitor |  | 10 µM |  | inhibition | -3%
COc1c(OCCCN2CCOCC2)ccc2c1N=C(NC(=O)c1cnc(N)nc1)N1CCN=C21 | kinase activity, inhibitor |  | 1 µM | reference: untreated control | remaining activity | 103%
